Experimental data pooled from the literature.
Parts stem from different laboratories: compare values within a part only.

Block 1
Target: Hepatocyte nuclear factor 3-beta, forkhead domain (FOXA2, Homo sapiens, UniProt Q9Y261, residues 142-269)
Technique: protein-binding microarray
Molecule type: double-stranded DNA, one strand shown
Sample: in vitro
Concentration: not given
Notes: k-mer, scored over probes, only values ≥0.25
Direction: higher = stronger binding
Quantity: E-score
Target sequence (chain): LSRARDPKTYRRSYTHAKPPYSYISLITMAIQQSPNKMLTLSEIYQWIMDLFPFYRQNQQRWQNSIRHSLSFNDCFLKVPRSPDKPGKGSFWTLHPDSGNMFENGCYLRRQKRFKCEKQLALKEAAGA
ATCTATAC: 0.259
ACGGACAA: 0.292
TATTACAA: 0.334
AACAACTA: 0.277
ATTTACTG: 0.27
CTGTGTAC: 0.306
CGTGTGTA: 0.295
CAACATAA: 0.339
ATATGGCA: 0.308
TCATGACA: 0.256
ATACAATG: 0.294
ATTAAATA: 0.32
GAATTAAC: 0.263
TGTTTAAA: 0.32
AGTAATTA: 0.343
ATAATCTA: 0.292
TAATGTGA: 0.352

Block 2
Target: Centromere-binding protein 1, full length, N-terminal tag (CBF1, Saccharomyces cerevisiae, UniProt P17106, residues 1-351)
Sequence of UniProt P17106 (whole entry, looked up): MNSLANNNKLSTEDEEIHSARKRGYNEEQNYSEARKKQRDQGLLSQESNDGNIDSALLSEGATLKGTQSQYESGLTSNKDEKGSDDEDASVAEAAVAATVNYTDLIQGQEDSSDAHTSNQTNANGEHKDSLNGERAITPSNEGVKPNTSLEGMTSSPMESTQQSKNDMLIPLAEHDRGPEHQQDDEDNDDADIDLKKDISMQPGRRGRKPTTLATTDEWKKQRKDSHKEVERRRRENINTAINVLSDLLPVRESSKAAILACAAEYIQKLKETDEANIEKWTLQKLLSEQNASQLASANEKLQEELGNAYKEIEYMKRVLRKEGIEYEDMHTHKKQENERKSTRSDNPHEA
Technique: protein-binding microarray
Molecule type: double-stranded DNA, one strand shown
Sample: in vitro
Concentration: 0.8 µM
Notes: whole 60-bp probe, no competitor
Direction: higher = stronger binding
Quantity: fluorescence intensity
Shared flanks, not repeated: … GTCTTGATTCGCTTGACGCTGCTG
CTATCAAACTACCACCACCACGCGGCAGGCCGATTC: 565 a.u.
CTATCGTAGATTCATCATGTTCTATACGTTTTTTTC: 485 a.u.
CCTAACTACTATACAGGTGAGTGATAGCTTCGTACA: 553 a.u.
CTACCTTGAACTTCTCGGGTGACCCCCTTAGCGTTC: 508 a.u.
TGTACGAAGCTATATATCGTGCTTATAGTAGTTAGG: 549 a.u.
CTAATGTCTTGCTCACCTGCAATAGCCCGCGTATTC: 531 a.u.
GAATTGCCCATTGAGCACATGATCAGTGAGTGTTAG: 3510 a.u.
CTAAAACAGTGGTCTGATGTGATAGGGAAGTAATTC: 589 a.u.
GAAATGGTAATGATTCACGTGATCTAGAAACTTTAG: 19800 a.u.
GAATGTGTTGCACGTGACTAAACATTGTCAATTTAG: 24800 a.u.
CTACGTTCTCGTCATCAGGTTGTATGGGCTAGTTTC: 544 a.u.
CTATCAAATGAATATCACGATTTTGGCTGTATTTTC: 579 a.u.
CCTAACTACTATAAATAGGTGGTATAGCTTCGTACA: 534 a.u.
CTAATTTAACACGTGATTAAGTTACTCTAATATTTC: 20600 a.u.
GAACAGCTTCCACTACACCTGAGACTATCTCTCTAG: 563 a.u.
CTATGATATTTTCACCAGACATTTCTTTAGCCATTC: 534 a.u.
CTATTTTCTTCACATCAGGCTTCGCATAGAAAATTC: 547 a.u.
TGTACGAAGCTATCCAATGACCATATAGTAGTTAGG: 561 a.u.
GAAGCAAGGATAATCCACATGCCGAAAATACGATAG: 651 a.u.
GAATAGGCACTATGAAGCGTGCGCCTCGTATACTAG: 495 a.u.

Block 3
Target: Fragile X messenger ribonucleoprotein 1, C-terminal low-complexity region (Fmr1, Mus musculus, UniProt P35922)
Technique: RNA Bind-n-Seq
Molecule type: RNA
Sample: in vitro
Concentration: 200 nM
Notes: whole 134-nt RNA, ends assumed
With: 150 mM LiCl
Reference: input library
Direction: higher = stronger binding
Quantity: log2 enrichment
Each molecule: 7-deaza-guanosine replaces G
Shared flanks, not repeated: GGGAGUUCUACAGUCCGACGAUC … UGGAAUUCUCGGGUGUCAAGG
UAACUUUAGAGGAGGAUCUGAUGGAUAUGGCAGUGGACGUGGAUUUGGGGAUGGCUACAAUGGGUAUGGAGGAGGACCUGGAGGUGGCAA: 0.00242
GCAGGAAGUAAAAACAAAUGGAAAUGCUUCGGAUAGUGGCAGGGGUGAAAGUUGCUAAGGAAAGGGUGGGAUGGGAGUGGGUAAAGAGUU: 1.79
UCCUGUGCUACACAUCGUAUGUACCGAAUCGGGGAAAAAAAGGGGAAAAAGGGGAGGGGAAAGUAUUAUGUUACGCCGUUCGGAUCUGCA: -0.463
AAGUCCUGUGCUACACAUCGUAUGUACCGAAUCGGAGGUUUUUUUGGUUUUUUUGGAAAGUAUUAUGUUACGCCGUUCGGAUCUGCACUU: -1.4
ACCAUGCAGGUGGGCAUCUUUGGAAAGUGGGGCAAGGGGGGGAUAGGGAGGGGGGUAACACUUUGGGAACAGGUGGUCCCAGGUCGUUUC: 1.28
CCUGUGCUACACAUCGUAUGUACCGAAUCAAAUUUUUUUAAAUUUUUUUAAACCCCCAAAAAAGUAUUAUGUUACGCCGUUCGGAUCUGC: 0.0838
AGUCCUGUGCUACACAUCGUAUGUACCGAAUCGGGGAAAAGGGAAAAGGGGAAAAGGGAAAGUAUUAUGUUACGCCGUUCGGAUCUGCAC: -0.285
AGUCCUGUGCUACACAUCGUAUGUACCGAAUCGGAAAAAAAGGUUUUUUUGGUUUGGAAAGUAUUAUGUUACGCCGUUCGGAUCUGCACU: -4.04
GUCCUGUGCUACACAUCGUAUGUACCGAAUCGGGAAAAAGGGAAAAAGGGGAAAAAGGAAAGUAUUAUGUUACGCCGUUCGGAUCUGCAC: 0.28
AAGUCCUGUGCUACACAUCGUAUGUACCGAAUCGGGGAAAAGGGAAAAGGAAAAGGGAAAGUAUUAUGUUACGCCGUUCGGAUCUGCACU: -0.125
UCAAGUCCUGUGCUACACAUCGUAUGUACCGAAUCGGGGAAGGGAAGGGGAAGGGAAAGUAUUAUGUUACGCCGUUCGGAUCUGCACUUC: -0.392

Block 4
Target: RNA binding protein fox-1 homolog 2, RRM domain, GST-SBP tag (RBFOX2, Homo sapiens, UniProt O43251-10, residues 100-194)
Technique: RNA Bind-n-Seq
Molecule type: RNA
Sample: in vitro
Concentration: 365 nM
Notes: natural RNA segment, single round, ends assumed
Reference: no-protein control
Direction: higher = stronger binding
Quantity: RBNS enrichment (R)
Shared flanks, not repeated: GGGAGUUCUACAGUCCGACGAUC … UGGAAUUCUCGGGUGCCAA
Residues (chain): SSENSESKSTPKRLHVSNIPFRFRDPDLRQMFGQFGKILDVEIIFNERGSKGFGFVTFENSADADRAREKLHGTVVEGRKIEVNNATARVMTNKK
GAGCUCGGCCCUCUCUUUGUAGCUGUGACUGUCACCCUCUCAGGCUUUGUCUCAUCCUUCAUUCUGAAUAAGAUGGCAGUGUUCUCCUCUGGGGCCUGAUCCACCUCUAC: 0.328
GUCAUUGGUUUGAUUGUCUCACUGUCCUUCAUUCAGGGCUCUGAGUUUCCUUUGGGCUGCCUUUCUAUCACAUUUGUGAAGGAUGGAUUUCUCAGCAGGGCUGAUGCUGC: 0.362
CUCUCGGGAAUGCUUUUCCAGCAGGGAGCUCUUCCCCUGAAGGAGACUAGCUUGCCUUGGUUUUGAUGUGUGUGGCCUCAGACGUGAUCAUUUCCCAUCCCGCUGUGUCU: 0.971
GUAAAAGUAUGAUGUAAAUUUUCAGUGCAAUGUAAACAAAAUAAAAAUGGAUAAUUGCUUUUGUAAAUGUGUUUUUUUUUCCAAAAAUAAACUGCAACUGUUCAGGUUAG: 0.481
GAUCAGUGUACAGAUUGUAUAUAGCGUCAUUUUUACGGAAACCCUUUUGGCGUGCAUAAGGAUCACUGUGUACACAUUGGCCAAGUGCUUCUGUAGAUAAUGUCUGUGGA: 0.289
GCAGUGUCCUGUACAAAACUGUGCUGUGACUGUGCGGUAGGCCUGGACAUGGCAAAGAGAAUACAGCGAAGCCCCUUCUCUUCCUACCAAACAACUCUGUAGAGCUCUCU: 0.173
UUCCUGGGCGGCCUUUUAUGUCUUGGAGACACCUGAUGUAAAGUUUCUGUAAAUCUAUUUCAUAUCUGACCCACCAAACAGAUUUCUCUUUAAUAAAAAUCCUUUUUGUA: 0.629
CGGAGAUCCAGGGGCCUCCAGCUGCUCCUUUCUUCUGUGUCCUGUUAUUUGGGUCCCAGAUGGAGCCCACCGCGGACUUGCCUUGCAUUCCUCAGGCCAGGCAAGCCUGA: 0.582
GUUAGCAUGUGCAAUAGGAACUACUGGUUUGCUGUGUAAAUGGAUGUCAGGAUCCAGCAAAACUACUGCUUUCUUCUCCAAAGACAUGUGGGAGCCUUCAAUCCUCAGUG: 4.41
UAAUUAUCAUACCUACCUACUUUAAAUUUUAGGUAGAAAAUUAUCUGAUUUAAAUACAAACAUAUUUUUCUCACAUUGAGUAAUAUGCAUAAUGUAGUUCCAAAUGUAUU: 1.08
AAUUGAGCUCACACUAUAUAAUCUUUAUUGUCCUAUCCUGAUGUAUAAUACAGCAGGUAUAAUUACACCAAGCGCUAUAGUUAUAAAUAUGGCAUGAAGUGAACUAUGGC: 0.428
CUGCACCUUCCUUUCUUCCACAAACACAUAUUGAUAGAUGCAAGAGACUCUUAUUUAGAAGGCGUGGGGGACAAGAAGGAUACAAGGUAAGUUUCAGUGGAGCUCAGAGG: 0.704

Block 5
Target: Prothrombin, mature alpha-thrombin (F2, Homo sapiens, UniProt P00734)
Technique: aptamer microarray, sandwich
Molecule type: DNA with 2'F-ANA
Sample: in vitro
Concentration: 200 nM
Notes: whole 15-mer aptamer, many near background
With: Cy3 exosite-II aptamer, 400 nM
Direction: higher = stronger binding
Quantity: mean fluorescence intensity
Strand: GGTTGGTGTGGTTGG
2'F-ANA at 2 5 6 11 12 14: 50 a.u.
2'F-ANA at 1 2 3 5 6 7 10 14 15: 48.8 a.u.
2'F-ANA at 5 7 8 10: 48.1 a.u.
2'F-ANA at 1 3 5 7 8 9 13: 56.4 a.u.
2'F-ANA at 1 2 6 9 11 13 14 15: 54.5 a.u.
2'F-ANA at 3 5 6 7 8 9 12 13: 172 a.u.
2'F-ANA at 1 4 5 7 11 12 13 14 15: 44.4 a.u.
2'F-ANA at 2 5 7 10 11 12 14 15: 45 a.u.
2'F-ANA at 1 5 10 13 14: 44.1 a.u.
2'F-ANA at 1 4 5 6 8 9 10 15: 47.5 a.u.
2'F-ANA at 1 6 7 8 9 11 12: 323 a.u.
2'F-ANA at 1 2 4 5 8 9 12 13: 76.9 a.u.
2'F-ANA at 1 4 5 9 10 12 15: 48.4 a.u.
2'F-ANA at 1 2 6 7 8 9 11 12 14: 75.3 a.u.
2'F-ANA at 1 2 3 7 10 14: 52.3 a.u.
2'F-ANA at 2 6 10 11 12: 152 a.u.
2'F-ANA at 3 9 10 11 12 13 15: 538 a.u.
2'F-ANA at 1 5 6 13 14 15: 57.8 a.u.
2'F-ANA at 3 5 6 8 10 12 13 15: 52.6 a.u.
2'F-ANA at 1 5 6 8 13 14: 45 a.u.
2'F-ANA at 1 2 3 5 6 7 8 11 14 15: 50.6 a.u.
2'F-ANA at 2 3 5 6 9 10 13 14: 85.9 a.u.
2'F-ANA at 2 3 7 8 9 11 13 14: 408 a.u.
2'F-ANA at 1 2 3 5 6 7 10 14: 44 a.u.
2'F-ANA at 1 3 4 5 6 7 8 9 10 11 12 15: 52.2 a.u.

For quick reference, copied from above (block 2):
CTATCAAACTACCACCACCACGCGGCAGGCCGATTC: 565 a.u.
TGTACGAAGCTATCCAATGACCATATAGTAGTTAGG: 561 a.u.
GAATTGCCCATTGAGCACATGATCAGTGAGTGTTAG: 3510 a.u.
CCTAACTACTATACAGGTGAGTGATAGCTTCGTACA: 553 a.u.
CTATCGTAGATTCATCATGTTCTATACGTTTTTTTC: 485 a.u.
CTATCAAATGAATATCACGATTTTGGCTGTATTTTC: 579 a.u.
CTACGTTCTCGTCATCAGGTTGTATGGGCTAGTTTC: 544 a.u.
CTAATTTAACACGTGATTAAGTTACTCTAATATTTC: 20600 a.u.
CCTAACTACTATAAATAGGTGGTATAGCTTCGTACA: 534 a.u.
TGTACGAAGCTATATATCGTGCTTATAGTAGTTAGG: 549 a.u.
CTATTTTCTTCACATCAGGCTTCGCATAGAAAATTC: 547 a.u.
GAAATGGTAATGATTCACGTGATCTAGAAACTTTAG: 19800 a.u.
GAACAGCTTCCACTACACCTGAGACTATCTCTCTAG: 563 a.u.
